# Published values from different studies.
# Compare with care: the assays were run in different laboratories. Values joined by “and” are separate records of one study, mostly repeats; a detail may differ. ± marks the error that the study gave.
SMILES,assay,test system,conditions,scale,quantity,result
COc1cccc(Oc2ccccc2NC(=O)CNC(=O)c2cccc3ccccc23)c1,,"esterase-deficient SCID mice, male","oral, 15 mg/kg/day, 14 days, toxicity study",,serum cholesterol,94 mg/dL and 88 mg/dL and 97 mg/dL
COc1ccnc(C(=O)N[C@H]2COC(=O)[C@H](Cc3ccccc3)[C@@H](OC(=O)C(C)C)[C@H](C)OC2=O)c1OCOC(=O)C(C)C,,"rats, mice and rabbits, faeces","oral, dose not given",,excretion,51 to 91%
C[C@]1(O)C[C@@](N)(c2ccc(-c3nc4n(c3-c3ccccc3)COc3ccncc3-4)cc2)C1,,"human, advanced or metastatic solid tumours","intermittent, dose escalation total, any grade",,patients with Diarrhea TEAE,14.3%
CCS(=O)(=O)Nc1ccc(Oc2ccc(F)cc2F)c(-c2cn(C)c(=O)c3[nH]ccc23)c1,serious febrile neutropenia,"human, relapsed/refractory AML","oral, dose not given",,treatment-emergent adverse events,16%
CCN1CCN(Cc2ccc(Nc3ncc(F)c(-c4cc(F)c5nc6n(c5c4)[C@H](C)CCC6)n3)nc2)CC1,,advanced solid tumour patients,"dose not given, Phase Ia monotherapy",,"Hypophosphatemia incidence, any grade",25%
N[C@@H]1c2ccccc2OC12CCN(c1cnc3c(N4CCCc5ncccc54)n[nH]c3n1)CC2,,patients advanced metastatic solid tumours,"oral, 60 mg once daily, pooled RP2D cohorts",,TEAE leading to death,0%
Clc1ccc(-c2ccccc2)cc1,,"Sprague-Dawley rats, female, serum","inhalation, 23 µg/rat, 4 h after exposure",,calcium,11 ± 1 mg/dL
CCc1ccc(CC/C=C/c2ccc3c(c2)C(=O)CC3)cc1,,"Sprague-Dawley rat, female","oral, 30 mg/kg/day, 14 days",,Globulin,17.6 g/L
CCN1[C@@H](C(=O)NC23CCC(C(=O)O)(CC2)CC3)[C@H](c2cccc(Cl)c2F)[C@]2(C(=O)Nc3cc(Cl)ccc32)C12CCCCC2,,patients with advanced solid tumours,"oral, 200 mg",,ALT elevation incidence,0%
COc1ccc2nc3cc(Cl)ccc3c(Nc3cc(CN4CCCC4)c(O)c(CN4CCCC4)c3)c2n1,,"mouse, blood","intraperitoneal, 28 mg/kg",,mean platelet volume,6.25 fL
C=C(CN(C(=O)c1c(C(F)F)nn(C)c1F)C1CC1)c1ccc(Cl)cc1Cl,static acute toxicity test,zebrafish (Brachydanio rerio),"1.20 mg a.i./L, 96 h",,mortality,70%
CN[C@@H](C)C(=O)N[C@H]1CN(S(=O)(=O)c2cccc(S(=O)(=O)N3CC[C@H]4CC[C@@H](C(=O)NC(c5ccccc5)c5ccccc5)N4C(=O)[C@@H](NC(=O)[C@H](C)NC)C3)c2)CC[C@H]2CC[C@@H](C(=O)NC(c3ccccc3)c3ccccc3)N2C1=O,,patients with advanced solid tumours,"4 mg, phase I monotherapy",,treatment-related AST elevation incidence,0%
CC(C)C[C@H](NC(=O)[C@H](CCCCN)NC(=O)OCC1c2ccccc2-c2ccccc21)C(=O)N[C@H](C(=O)N[C@@H](Cc1ccccc1)C(=O)N[C@@H](Cc1ccccc1)C(=O)N[C@@H](CCCCN)C(=O)NCC(=O)N[C@@H](Cc1ccccc1)C(=O)N[C@@H](C)C(=O)N[C@@H](Cc1c[nH]c2ccccc12)C(=O)N[C@@H](CC(N)=O)C(=O)N[C@H](C(=O)N[C@H]1CSSC[C@@H](C(=O)N[C@@H](Cc2c[nH]cn2)C(=O)N[C@@H](CCCNC(=N)N)C(=O)N[C@@H](CCCNC(=N)N)C(=O)N[C@@H](C)C(=O)N[C@@H](CC(N)=O)C(N)=O)NC(=O)[C@H](C(C)C)NC(=O)[C@H](CCCNC(=N)N)NC(=O)[C@H](C(C)C)NC(=O)CNC(=O)[C@H](CC(N)=O)NC(=O)[C@H](CCCNC(=N)N)NC(=O)[C@H](Cc2ccc(O)cc2)NC(=O)[C@H](C(C)C)NC1=O)C(C)C)C(C)C,,"ICR mouse, blood","intramammary, 10 mg/kg, day 5, 3 d dosing",,AST/ALT ratio,0.61 ± 0.02
CC(=O)c1c(C)c2cnc(Nc3ccc(C4CCN(CCS(C)(=O)=O)CC4)cn3)nc2n(C2CCCC2)c1=O,,HR+/HER2- advanced breast cancer patients,"oral, dose not given, all grades",,ALT increased,25.9%
CN1CC[C@@H](c2c(O)cc(O)c3c(=O)cc(-c4ccc(C(F)(F)F)cc4Cl)oc23)[C@@H]1CO,refers to: Anorexia,relapsed or refractory haematological malignancies,"oral, dose not given, grade ≥3",,adverse event incidence,0%
CC[C@H](C)[C@H](NC(=O)[C@H](Cc1ccccc1)NC(=O)[C@H](CCC(=O)O)NC(=O)[C@H](CCCNC(=N)N)NC(=O)[C@H](C)NC(=O)[C@H](C)NC(=O)[C@H](CCC(N)=O)NC(=O)[C@H](CCC(=O)O)NC(=O)[C@H](CCC(=O)O)NC(=O)[C@H](CC(C)C)NC(=O)[C@H](Cc1ccc(O)cc1)NC(=O)[C@H](CO)NC(=O)[C@H](CO)NC(=O)[C@@H](NC(=O)[C@H](CC(=O)O)NC(=O)[C@H](CO)NC(=O)[C@@H](NC(=O)[C@H](Cc1ccccc1)NC(=O)[C@@H](NC(=O)CNC(=O)[C@H](CCC(=O)O)NC(=O)[C@H](C)NC(=O)CCc1cnc[nH]1)[C@@H](C)O)[C@@H](C)O)C(C)C)C(=O)N[C@@H](C)C(=O)N[C@@H](Cc1c[nH]c2ccccc12)C(=O)N[C@@H](CC(C)C)C(=O)N[C@H](C(=O)N[C@@H](CCCNC(=N)N)C(=O)NCC(=O)N[C@@H](CCCNC(=N)N)C(=O)N[C@@H](CCCCNC(=O)COCCOCCNC(=O)COCCOCCNC(=O)CC[C@H](NC(=O)CCCCCCCCCCCCCCCCC(=O)O)C(=O)O)C(=O)NCC(=O)NCC(=O)N[C@@H](CO)C(=O)N[C@@H](CCSC)C(=O)N[C@H](C(=O)N[C@@H](CCCCNc1c(NCCCCCN(O)C(=O)CCC(=O)NCCCCCN(O)C(=O)CCC(=O)NCCCCCN(O)C(C)=O)c(=O)c1=O)C(=O)O)C(C)C)C(C)C [zirconium-89 labelled],ex vivo gamma counting,"male Sprague-Dawley rats, liver","intravenous, 1 nmol, 24 h, mean of 3 animals",,tissue uptake,2.11 %ID/g
C[C@@H](NC(=O)N1C(=O)[C@H](Cc2ccnc(N)c2)[C@H]1C(=O)O)C1CCCCC1,,healthy adult Chinese volunteers,"continuous intravenous infusion, 1.5 mg/kg/h, 5-day infusion, CTCAE 5.0 grading",,incidence of diarrhea,0%
COc1cc2c(Oc3ccc4[nH]c(C)cc4c3F)ccnc2cc1OCC1(N)CC1,,paediatric recurrent refractory sarcoma,8 mg,,grade 3 Vomiting,0%
O[C@H]1CCCN[C@@H]1CCCn1cnc2c(Cl)c(Cl)ccc21,,"healthy CYP2D6 EM and UM, plasma","oral, 150 mg single dose",,AUC(0-12),606 ng·h/mL
O=S(=O)(Nc1ccccc1)c1ccc(NC(=S)Nc2ccccc2)cc1,refers to: LY%,"female mouse, blood","oral, 80 mg/kg daily, 14 days",,blood cell fraction,71.3%
CO[C@H]1C[C@@H]2CC[C@@H](C)[C@@](O)(O2)C(=O)C(=O)N2CCCC[C@H]2C(=O)O[C@H]([C@H](C)C[C@@H]2CC[C@@H](OC(=O)NCCOCCOCCOCCOCCOCCOCCOCCOCCC(=O)N3CCc4cc(Cn5nc(-c6ccc7oc(N)nc7c6)c6c(N)ncnc65)ccc4C3)[C@H](OC)C2)C[C@@H](O)[C@H](C)/C=C(\C)[C@@H](O)[C@@H](OC)C(=O)[C@H](C)C[C@H](C)/C=C/C=C/C=C/1C,"phase 1 dose escalation, refers to: decreased appetite",advanced solid tumour patients,"intravenous, 12 mg weekly, any grade",,TRAE incidence,8.3%
O=c1oc2c(O)c(O)cc3c(=O)oc4c(O)c(O)cc1c4c23,subacute oral toxicity,BALB/c mice,"oral, 1000 mg/kg/day, 28 days",,liver weight,1.33 g
O=C(O)CCCOc1ccc(F)cc1-c1cc(-c2ccccc2C(F)(F)F)n(-c2ccccc2)n1,,"female Crl:CD(SD) rats, kidneys","intravenous, 25 µg/kg, 1 d",,relative organ weight,0.79 ± 0.03 g%
C[C@@H]1NC(=O)[C@H](CCCCNC(=O)CO/N=C/C(=O)NCCCC[C@@H]2NC(=O)[C@@H](Cc3ccccc3)NC(=O)[C@H](CC(=O)O)NC(=O)CNC(=O)[C@H](CCCNC(=N)N)NC2=O)NC(=O)CNC(=O)[C@@H]2CCCN2C(=O)[C@H](CCCCNC(=O)CO/N=C/C(=O)NCCCC[C@@H]2NC(=O)[C@@H](Cc3ccccc3)NC(=O)[C@H](CC(=O)O)NC(=O)CNC(=O)[C@H](CCCNC(=N)N)NC2=O)NC(=O)[C@H](CCCCNC(=O)[C@H](CCCCN)NC(=O)[C@H](Cc2ccccc2)NC(=O)CNC(=O)CN2CCCNCCNCCCNCC2)NC(=O)[C@H](CCCCNC(=O)CO/N=C/C(=O)NCCCC[C@@H]2NC(=O)[C@@H](Cc3ccccc3)NC(=O)[C@H](CC(=O)O)NC(=O)CNC(=O)[C@H](CCCNC(=N)N)NC2=O)NC(=O)CNC(=O)[C@@H]2CCCN2C(=O)[C@H](CCCCNC(=O)CO/N=C/C(=O)NCCCC[C@@H]2NC(=O)[C@@H](Cc3ccccc3)NC(=O)[C@H](CC(=O)O)NC(=O)CNC(=O)[C@H](CCCNC(=N)N)NC2=O)NC1=O [copper-64 labelled],,"normal mice, lung","intravenous, 0.74 MBq, 3 h post-injection",,tissue uptake,9.38 ± 1.63 %ID/g
NCCCC[C@@H]1NC(=O)[C@@H](Cc2c[nH]c3ccccc23)NC(=O)[C@H](c2ccccc2)NC(=O)[C@@H]2C[C@@H](OC(=O)NCCN)CN2C(=O)[C@H](Cc2ccccc2)NC(=O)[C@H](Cc2ccc(OCc3ccccc3)cc2)NC1=O,,"healthy volunteers, female","1950 µg twice daily, 4.0 h, post hoc",,placebo-corrected QTcF change,9 ms
COc1ccc(-c2c(-c3ccc(C#N)c(F)c3)nc(N3CCC(N)CC3)n(C)c2=O)cc1F,refers to: Diarrhea,neuroendocrine neoplasm patients,"oral, 60 mg, grade 3 to 4, dose expansion",,treatment-related adverse event incidence,0%
O=C([O-])CN1CCN(CC(=O)[O-])CCN(CC(=O)NCC2CCC(C(=O)N[C@@H](Cc3ccc4ccccc4c3)C(=O)NCCCC[C@H](NC(=O)N[C@@H](CCC(=O)O)C(=O)O)C(=O)O)CC2)CCN(CC(=O)[O-])CC1.[177Lu+3] (some centres unmarked),99mTc-DTPA plasma clearance,human,"dose not given, after 3 cycles",baseline: before treatment,change in measured GFR,18%
O=C1Nc2cc3[nH]nc(-c4ccncc4)c3cc2CN1Cc1ccccc1,CTCAE v4.03,advanced solid tumour patients,"intravenous, 0.45 mg/kg, schedules 1/2",,patients with acneiform dermatitis,0%
C[C@H]1C[C@@H](N2C(=N)N[C@](C)(c3cccc(NC(=O)c4cccc(C#N)c4)c3Cl)CC2=O)CCO1,,rat,"1000 mg/kg, every other day",,ALAT change,53%
O=C(c1ccc(F)c(F)c1Nc1ccc(I)cc1F)N1CC(O)([C@@H]2CCCCN2)C1,,human patients,"oral, 1 mg/kg, age ≥18 years",,fatal adverse events,0%
Cn1ncc(-c2nc(N[C@H]3CC[C@H](N)CC3)ncc2Cl)c1CC1CC1,HPLC-MS/MS,"patients, plasma","oral, 5 mg, day 1",,AUC,233 ng·h/mL
C[C@]1(CO)Cc2ncn(-c3ccc(C#N)c(Cl)c3)c2C(=O)O1,,"human, Chinese, plasma","3 mg single dose, geometric mean",,half-life,4.4 h
COc1ncccc1-c1cnn2ccc(N3CCN(C(=O)OC(C)C)CC3)nc12,,"mouse, SNL model, brain","oral, 60 mg/kg, 30 min",,drug concentration,62 µM
CN1CCN(S(=O)(=O)c2cc([N+](=O)[O-])ccc2N(CCOS(C)(=O)=O)CCOS(C)(=O)=O)CC1,,"naive female NSG mice, plasma","intraperitoneal, 10 mg/kg",,elimination rate constant,0.00112 s⁻¹
CC(C)CC(=O)OC[C@H]1O[C@@](C#N)(c2ccc3c(N)ncnn23)[C@H](O)[C@@H]1O,,dog whole blood,"5 µM, 60 min",,remaining compound,24.5 ± 0.849%
